Experimental data pooled from the literature.
Lines come from different studies, so protocols differ. Several values in a cell are separate wells, animals, samples, runs or records.
Target: Serine/threonine-protein kinase 25 (STK25, Homo sapiens, UniProt O00506)

| Compound | test | test system | setting | how to read | endpoint | value |
| --- | --- | --- | --- | --- | --- | --- |
| CNC(=O)C[C@H](Cc1ccc(C#N)cc1)NC(=O)c1cc(-c2ccc(CN[C@H](C)c3ccc(C)cc3)o2)ccc1Cl | enzyme activity, inhibitor | – | 1 µM | – | activity vs control | 104% |
| CN1CCN(Cc2ccc(-c3ccc(CO[C@H]4CCC[C@@H]4NC(=O)c4cc(-c5cnn(C)c5)cnc4N)cc3)cc2)CC1 | enzyme activity, inhibitor | – | 0.1 µM | – | inhibition | 11% |
| COc1c(Cl)cccc1Nc1c(-c2ccncc2C#C[C@@]2(C)CCCN2C(=O)/C=C/CN(C)C)[nH]c2c1C(=O)NCC2 | binding, competition with immobilised ligand | – | 3 µM | – | remaining binding | 87% |
| CN1CC[C@@H](COc2cnc(C#N)cc2-c2ccn3nc(NC(=O)C4CC4)cc3c2)C1 | enzyme activity, inhibitor | – | 1 µM | – | inhibition | -3% |
| COc1ccc(C(=O)/C=C/c2ccccc2-c2c[nH]c3ccc(C#N)cc23)c(O)c1 | enzyme activity, inhibitor | – | 20 µM | – | inhibition | -4% |
| Cc1cccc(O[C@H]2CCC[C@@H](C(C)CNCc3ccncc3)C2)c1 (relative stereo) | enzyme activity, inhibitor | – | 10 µM | – | inhibition | -2% |
| C=CC(=O)N1Cc2nc(-c3cc(-c4cc(Cl)cnc4Cl)c(F)cc3F)n(-c3ccncn3)c2C1 | cell-free assay, inhibitor | – | 1 µM | – | inhibition | 0.9% |
| CCn1cc(C(=O)O)c(=O)c2c(N)c(F)c(NC3CCCCC3)cc21 | kinase activity | – | 0.1 µM, added: ATP at Km | – | inhibition | 10.5% |
| C=CC(=O)Nc1cccc(-c2cnc3[nH]cc(C(=O)NC(C)(C)C)c3n2)c1 | kinase activity | – | 0.1 µM | – | inhibition | 11% and 8% |
| CNC(=O)C1CCN(c2cc(C)c(F)cc2NC(=O)c2ccc(-c3cc(O)ccc3C)c(C)c2)CC1 | binding, competition with immobilised ligand | – | 1 µM | – | remaining binding | 98% |
| Nc1ncc(-c2cc(-c3cnn(CC(F)(F)F)c3)ncc2F)nc1C(=O)NC1CNCC(F)C1 (stereo not drawn) | enzyme activity | – | 1 µM | baseline: DMSO control | remaining activity | 99.1% |
| C=CC(=O)N1CCc2ccc(-n3c(=O)ccc4cnc5ccc(-c6cnn(C)c6)cc5c43)cc21 | KINOMEscan | – | 1 µM | baseline: DMSO control | remaining binding | 96% |
| NC(=O)C[C@H]1CCc2sc3ncnc(O[C@H]4CC[C@H](N5CCOCC5)CC4)c3c21 | enzyme activity, inhibitor | – | 10 µM | – | inhibition | 10% |
| COc1cc(Nc2nc(C)cc(-c3cnn4nc(OC)ccc34)n2)cc(C(F)(F)F)c1 | binding, competition with immobilised ligand | – | 1 µM | – | remaining binding | 91% |
| N[C@H]1CC[C@H](Nc2nccc(-c3cccnc3Oc3ccc(NC(=O)NC4CC4)c4ccccc34)n2)CC1 | kinobead competition pulldown | HEK293/HCT116 lysate mixture | 10 µM, 1 h, 4 °C | lower = stronger competition | log2 LFQ intensity | 21 and 20.4 and 21.4 and 19.9 |

Some of these lines once more:
| Compound | test | test system | setting | how to read | endpoint | value |
| --- | --- | --- | --- | --- | --- | --- |
| C=CC(=O)N1Cc2nc(-c3cc(-c4cc(Cl)cnc4Cl)c(F)cc3F)n(-c3ccncn3)c2C1 | cell-free assay, inhibitor | – | 1 µM | – | inhibition | 0.9% |
| C=CC(=O)Nc1cccc(-c2cnc3[nH]cc(C(=O)NC(C)(C)C)c3n2)c1 | kinase activity | – | 0.1 µM | – | inhibition | 11% and 8% |
